Measured values pooled from the literature.
Each numbered part is a random draw from the data of one study; scales do not carry over between parts.

Study 1 — method: RNA Bind-n-Seq; molecule type: RNA; sample: in vitro; concentration: 365 nM; reference: no-protein control; direction: higher = stronger binding
Target: RNA binding protein fox-1 homolog 2, RRM domain, GST-SBP tag (RBFOX2, Homo sapiens, UniProt O43251-10, residues 100-194)
Notes: natural RNA segment, single round, ends assumed
All sequences stand within: GGGAGUUCUACAGUCCGACGAUC … UGGAAUUCUCGGGUGCCAA
Construct (chain): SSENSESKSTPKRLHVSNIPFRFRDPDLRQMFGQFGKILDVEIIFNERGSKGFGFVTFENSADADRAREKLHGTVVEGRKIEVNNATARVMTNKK
| Strand | RBNS enrichment (R) |
| --- | --- |
| UGACUUCUGCCUGGAGACUUAGGGCACCAGGGGUUUCUCGCAUAGGACCUUUCCACCACAGCCAGCACCUGGCAUCGCACCAUUCUGACUCGGUUUCUCCAAACUGAAGC | 0.433 |
| UCUAUUUUCGGCAAUAAGGUAAGGACGACAGUGUUUUGAGUGUCCUCCUUUUCUAUAAGUGCUUUUUUUCUGUUGAAAGAGGUGAUAUUAUAAGGUUUUUUGAAAUUGUG | 1.16 |
| UUCUGUCAAGUGUUGGUAGAAUGGGCUGAAAAGACAGGUACUUGCACCGAAAGAGCUCUUCUUUUCCCCUUAGAUGUACAGUAGGAGAGGUUGUUAAGUGUUCUCUCUUU | 0.555 |
| AAAUUGAAAUCUUUGCCUAGGCAGAGAAAUUGACCUAUGGUGGCUUAUUUUAGUCUUUUAUAAAUAAACUGAGUUUUUGAUAGGGUAACUUAUGGAUUGACUAGAUUCAU | 0.357 |
| AUGCCUGUAUGCCUUUUUCUGGUCCAAUUGUAAAUAAAAUGCCAUUGUCCUGUUGUCUCAACUCGAAUGCAAGGGUGCGGAUUGAAGUGUGAUGGUUUCACCAGGUGGGU | 3.87 |
| GGCAGAGAACUCAGGAGCUCUGCACUCAACGCCCCUGCUGCCUCGCCCCCUCCCUGACAGGUGUCUUGUCAAGGUGUAUCCUCCGAGUAUCUUGACCACCUGGCACCAUG | 0.34 |
| UCAUGUAAUGGUCUUUGGCAGGAGAGAGCACUGAGUCAUUGCUGGAGUUCAGUUCAACAGAGCUGCAGCUUGGGAAGCCCUGUAAGCCCACAGCUUCCUCUCUUAUAUUA | 0.345 |
| CAGAGGGGGCCAAGGCCUGUUUCAAAAACAACAACCAAGACAAGCAAAACCAGGUGUUGCUUUGCUAUGUUCCUGUACACUGUGGGAGAGGUAAUAGCAUCUGUGGGACA | 0.813 |
| UAUUAUUGAUGAAUUUUCAUAAGGUGGAAUUGAUCUUAAUCUACUAACAGAGAAGGGUAGACAGUUUGUGUUAAAUGUUGGCAUUUACUUGUAUUGACCAAAGUUUUGCA | 2.07 |
| AGAGAGAGAAGUACCACUGUGGCUAGAUAUAUACACACACAUAUAUAUAUGGAUGGAUGUAAUAUAUGUAGAACACACACAUAGAUGUAUAUAGGAUACACACUCAUGUA | 0.556 |
| CUGUUGACGGGACCCCUGCUGUCUUAAGCUUUUCCCCAUAGUGCCUAUAGUUUCCAAAGAAACUUAACUUCCUGGGUAUUAACUUAAUUUUAUUAGAACACUGCAGUUGA | 0.527 |
| GGGAUUUGUUUGACUUGACUAGGGAACCACAAGUUUUCAUAUAAUGCCUGAUUUAGCCCUGUGCCUAACAGUUUAAAUCUUAAUGCUAAUGUUAAUUGCUUCCCAGUUGG | 0.336 |

Study 2 — method: RNA Bind-n-Seq; molecule type: RNA; sample: in vitro; concentration: 1 µM; notes: whole 134-nt RNA, ends assumed; together with: 150 mM KCl; reference: input library; direction: higher = stronger binding
Target: Ras GTPase-activating protein-binding protein 1, C-terminal RGG region (G3BP1, Homo sapiens, UniProt Q13283)
UniProt Q13283, sequence (whole entry, looked up): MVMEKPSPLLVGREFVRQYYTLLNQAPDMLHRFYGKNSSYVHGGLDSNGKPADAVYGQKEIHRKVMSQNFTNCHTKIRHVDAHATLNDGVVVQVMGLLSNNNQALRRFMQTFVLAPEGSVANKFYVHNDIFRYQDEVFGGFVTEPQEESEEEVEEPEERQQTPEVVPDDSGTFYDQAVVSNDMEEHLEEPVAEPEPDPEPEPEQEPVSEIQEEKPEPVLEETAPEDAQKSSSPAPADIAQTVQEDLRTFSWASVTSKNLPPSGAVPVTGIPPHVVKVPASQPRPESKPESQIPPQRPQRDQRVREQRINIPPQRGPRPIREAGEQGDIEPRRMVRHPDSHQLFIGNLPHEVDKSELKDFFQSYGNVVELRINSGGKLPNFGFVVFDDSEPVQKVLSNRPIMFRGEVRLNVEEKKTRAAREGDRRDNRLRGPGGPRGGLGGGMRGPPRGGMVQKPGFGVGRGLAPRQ
All sequences stand within: GGGAGUUCUACAGUCCGACGAUC … UGGAAUUCUCGGGUGUCAAGG
| Strand | log2 enrichment |
| --- | --- |
| UCCUGUGCUACACAUCGUAUGUACCGAAUCGGGCCCCCGGGGCCCCCGGGGCCCCCGGGGAAAGUAUUAUGUUACGCCGUUCGGAUCUGC | -1.63 |
| GGUGCGGCUCUAUGAGUGGACAACAGAGAAGGAGCUGCGCACUGAGUGCAACCACUACAACAACAUCAUGGCCCUCUACCUGAAGACCAA | -1.19 |
| UUGUAUUAAGACAACGCUCCUCGACUUAGAUGCCUUGGCAAGACAUUUGGCUGACUGUAUUCGAAGGUAAAAUUUGAUGUGAAAUUGACA | -0.862 |
| UUGGACUAUGGAUCAGGUACUGUGCUCAGCAUCAGAAAAUGGGAUGACAAUGAACAGAGUAACAGGACUAUAUUUCUGAAAAAGGAUGAA | -1.01 |
| CUCAAGUCCUGUGCUACACAUCGUAUGUACCGAAUCGGGCCGGCCGGCCGGGGAAAGUAUUAUGUUACGCCGUUCGGAUCUGCACUUCCA | -0.948 |
| CAAGUCCUGUGCUACACAUCGUAUGUACCGAAUCGGGCCCGGCCCGGGGCCCGGGGAAAGUAUUAUGUUACGCCGUUCGGAUCUGCACUU | -1.68 |
| CACAGACAACACGCACCCACACAGACACAGAGGGAAGGGGUUGGGAUGGGGACAGGGUGCACAGCCGGGCGGGGUAGGACCCCAGCCCCU | 0.058 |
| CCUCAAGUCCUGUGCUACACAUCGUAUGUACCGAAUCGGUUGGGUUGGUUGGGAAAGUAUUAUGUUACGCCGUUCGGAUCUGCACUUCCA | -0.901 |
| UCUGAGCAAUUGAAUGCCCUAAACAAGGCUUACCAUGACCUUUGUGAUGGUUCUGCAAAUCAGCUUCAGCAGCUUCAGAGCCAGUUGGCU | -2.46 |
| UUCCUCAAGUCCUGUGCUACACAUCGUAUGUACCGAAUCGGGUGGUGGUGGAAAGUAUUAUGUUACGCCGUUCGGAUCUGCACUUCCAGC | -0.52 |

Study 3 — method: RNA Bind-n-Seq; molecule type: RNA; sample: in vitro; concentration: not given; reference: input RNA pool; direction: higher = stronger binding
Target: RING finger protein unkempt homolog, zinc fingers 1-6, GST-SBP tag (UNK, Homo sapiens, UniProt Q9C0B0, residues 30-357)
Notes: RNA with constant flanks, human and mouse sites, ends assumed
All sequences stand within: GGGAGUUCUACAGUCCGACGAUC … CAACAGAGGAUUGAGCAUCA
Residues (chain): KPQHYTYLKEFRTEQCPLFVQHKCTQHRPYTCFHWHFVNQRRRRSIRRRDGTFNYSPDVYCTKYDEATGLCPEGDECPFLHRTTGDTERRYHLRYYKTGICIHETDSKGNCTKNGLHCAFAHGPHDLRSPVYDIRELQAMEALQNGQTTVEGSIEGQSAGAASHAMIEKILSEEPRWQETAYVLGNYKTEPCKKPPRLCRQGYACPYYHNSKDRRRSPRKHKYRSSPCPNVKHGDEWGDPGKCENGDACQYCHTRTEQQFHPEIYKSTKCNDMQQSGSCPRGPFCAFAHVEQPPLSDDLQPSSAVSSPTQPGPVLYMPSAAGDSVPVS
| Strand | bound/input enrichment [ratio] |
| --- | --- |
| AGGCGGCCGUCAUGGCGGUGUCGGAGAGCCAGCUCAAGAAAAUGGUGUCCAAGUACAAAUACAGAGACCUAACUGUACGUGAAACUGUCAAUGUUAUUACUCUAUACAAAGAUCUCAAAC | 0.0651 |
| UUAGACUGUAAGCUUGCCAAGGGCAGGGACUGUGUUUUAUUCAUCUGUAUCCAUCACAGCACUAGGCGUGGUGCAUAGCACACAGCAGUUGCUCAAUAAAUGUUUGUUGGAUUAAAUCCU | 0.408 |
| CUUACUCAUCAUUUAAAAACUAUAUUUACAGAAGAUGUUUGGUUGCUGGGGGGGCUUUUUUAGGUUUUGGGGCAUUUGUUUUUUGUAAAUAAGAUGAUUAUGCUUUGUGGCUAUCCAUCA | 1.98 |
| AUGAAUCCUGGGGGCCAGUUCCAUCCUACUCCACCACCUCUUCAGCACUAUACACUAGAAGACAUUGCAACUUCUCACCUGUAUCGGGAACCAAACAAGAUGCUAGAACACCGAGAAGUU | 0.34 |
| AAGAUUCACCAAGAAACCUUUGGCAAGAGUGGAUGCCGUCGCAUCGUUCCUGGCCAGUUCUUAGCUGUGGAUCCCAAAGGGCGAGCCGUUAUGAUUAGUGCCAUUGAGAAACAGAAAUUG | 0.374 |
| GUUUUUAUCAUUUUAAGAACAUUUCAUAAACAGAAUUGUACUUUUAAAAACAAUUUUUUAUUUAGCAUUCUACCUUUUGAAAUGUACUGUCUUACUCCAAAUAAUAUCCUGAGAUCUAUC | 0.689 |
| UCCUCUAAAGCAACUCCUGCAGAGAUGGAUUUGGCCCACAACAGCCAAAGCAUGCACGCCUCUUCAGCUUCCAAAUCUGUGCUGGAGGUGACUCAGAAAGCAACCCCAAAUCCAAGUCUU | 0.21 |
| GUAUAUAUUUCCAGGCUGCAUCUUCAGCCUGAUAUGUACUUUGUAGUUGCAACAGCGCCCUAGGUGCCCUAUGGCCCACCAAGUUUGAGGAGGGUGGUGCUUUCCGGAUUGAGCCUGGGC | 0.207 |
| UUUAAUGACUCUCAGCGUCAGGCUACCAAAGAUGCUGGAACUAUUGCUGGUCUCAAUGUACUUAGAAUUAUUAAUGAGCCAACUGCUGCUGCUAUUGCUUACGGCUUAGACAAAAAGGUU | 2.8 |
| ACAUUUUCAGACUGUCUCAUGGUGGUGCAGUUCUUACGAAACUUUGGUAAAGUUUUGGGCUUUGAUGUGAAUAUUGAUGUUCCAAACCUCAGUGUUCUUCAAGAGGGAUUGCUAAAUAUA | 0.559 |
| AUCGUACAUCGAGACCUCAAGGCUGAAAAUCUAUUGUUAGAUGCCGAUAUGAACAUUAAAAUAGCAGAUUUCGGUUUUAGCAAUGAAUUUACUGUUGGCGGUAAACUCGACACGUUUUGU | 0.448 |

Study 4 — method: protein-binding microarray; molecule type: double-stranded DNA, one strand shown; sample: in vitro; concentration: 250 nM; notes: 60-bp whole probe; together with: salmon DNA 0.4 mg/ml; reference: random background probes; direction: higher = stronger binding; all sequences stand within: GCCTAGCAC … GTCTTGATTCGCTTGACGCTGCTG
Target: Interferon regulatory factor 5, full length, phosphomimetic (IRF5, Homo sapiens, UniProt Q13568-2, residues 1-514, K96S/S451D/S453D/S456D/S462D)
| Strand | log fluorescence [z-score] |
| --- | --- |
| GACGGTCTCCTTCTACTGACGTGCTAG | 0.0598 |
| ATGACTCTGCCTCTAACTGCGTGCTAG | -0.416 |
| TTAGGACTGGGTATCGGTCAGTGCTAG | 3.13 |
| GCTCATCTGTCATGTTTGTCAGTGCTA | 0.326 |
| GACGATCTCAGTCTCGACACGTGCTAG | -0.0111 |
| GACGGTCTCCGTCTCCTGACGTGCTAG | -0.35 |
| TTAGATCTCAGTTTCGATTGGTGCTAG | 9.12 |
| TCAGCTCTTTCGTTACTTACTGTGCTA | 5.44 |
| TTAGAACTGGGGTATCGATTAGTGCTA | 2.42 |
| AGAGCTTGTAGCCATCTTTGGTGCTAG | -0.467 |
| TTAGATTCCAGTTTCGCTTAGTGCTAG | 7.21 |
| GACGGTATCCTTCTCCTCACGTGCTAG | 0.187 |
| GACGATATCGGCACTGGAGACGTGCTA | 0.919 |
| TCATTTCTCTGCTCTTTTACTGTGCTA | 1.85 |
| CAGAGTCTAGCCATTGTGGGTGTGCTA | -0.551 |
| TCAACTTTCTCTGCTCTTACTGTGCTA | 2.38 |
| GACGGAGTGCTTATCCTGACGTGCTAG | -0.564 |
| TTAGGAATCGGGTTTCGGTTAGTGCTA | 8.12 |
| TCCCAATTCTCTTTTCACTTGTGCTAG | 1.22 |
| TCACCCCTCTCATTCCAACTGTGCTAG | 0.187 |
| TCAGATCACCGATTTCCTACTGTGCTA | 0.23 |
| CACGATCTCAGTATCGAGACGTGCTAG | 1.53 |
| TCAGGACTGGGTTTCGGTTAGTGCTAG | 8.27 |
| TGAGGTTTCCTTATCCTTTAGTGCTAG | 0.428 |
| GACGGACTGCACTTTCGGGACGTGCTA | 5.59 |

Repeated from above (study 1):
| Strand | RBNS enrichment (R) |
| --- | --- |
| AUGCCUGUAUGCCUUUUUCUGGUCCAAUUGUAAAUAAAAUGCCAUUGUCCUGUUGUCUCAACUCGAAUGCAAGGGUGCGGAUUGAAGUGUGAUGGUUUCACCAGGUGGGU | 3.87 |
| CUGUUGACGGGACCCCUGCUGUCUUAAGCUUUUCCCCAUAGUGCCUAUAGUUUCCAAAGAAACUUAACUUCCUGGGUAUUAACUUAAUUUUAUUAGAACACUGCAGUUGA | 0.527 |
| GGCAGAGAACUCAGGAGCUCUGCACUCAACGCCCCUGCUGCCUCGCCCCCUCCCUGACAGGUGUCUUGUCAAGGUGUAUCCUCCGAGUAUCUUGACCACCUGGCACCAUG | 0.34 |
| UCAUGUAAUGGUCUUUGGCAGGAGAGAGCACUGAGUCAUUGCUGGAGUUCAGUUCAACAGAGCUGCAGCUUGGGAAGCCCUGUAAGCCCACAGCUUCCUCUCUUAUAUUA | 0.345 |
| CAGAGGGGGCCAAGGCCUGUUUCAAAAACAACAACCAAGACAAGCAAAACCAGGUGUUGCUUUGCUAUGUUCCUGUACACUGUGGGAGAGGUAAUAGCAUCUGUGGGACA | 0.813 |
| AAAUUGAAAUCUUUGCCUAGGCAGAGAAAUUGACCUAUGGUGGCUUAUUUUAGUCUUUUAUAAAUAAACUGAGUUUUUGAUAGGGUAACUUAUGGAUUGACUAGAUUCAU | 0.357 |
| UCUAUUUUCGGCAAUAAGGUAAGGACGACAGUGUUUUGAGUGUCCUCCUUUUCUAUAAGUGCUUUUUUUCUGUUGAAAGAGGUGAUAUUAUAAGGUUUUUUGAAAUUGUG | 1.16 |
| UUCUGUCAAGUGUUGGUAGAAUGGGCUGAAAAGACAGGUACUUGCACCGAAAGAGCUCUUCUUUUCCCCUUAGAUGUACAGUAGGAGAGGUUGUUAAGUGUUCUCUCUUU | 0.555 |
